# Experimental data collected from several papers.
# A part holds a random share of what one study measured. Positions count from the first letter of the parent shown.

# Sample 1
# Target: Sal-like protein 4, full length isoform B (SALL4, Homo sapiens, UniProt Q9UJQ4-2, residues 1-616)
# Method: universal PBM
# Form: double-stranded DNA, one strand shown
# Medium: in vitro
# Tested at: not given
# Notes: 8-mer, flanks averaged, mean of replicates
# Direction: higher = stronger binding
Strand,E-score
ATTGATCG,0.0853
CGTGTAAG,0.0657
ATCAACTA,0.265
GAGATTCC,-0.182
CACCCGTA,-0.121
CCATAACG,0.123
GTTGTTGA,0.106
TAAGTATA,0.308
CACGCTGG,-0.136
AGAGTCAG,-0.203
ACGCCCCC,-0.288
AGCATATC,0.072
TACATTAA,0.307
ACGCTGTG,-0.0484
CAAGAATG,0.00209
GTCAAATA,0.294
CATACTAC,0.0835
ATAGCCTG,-0.00541
ACATCCGA,-0.194
ATGAGAGA,0.153
GCCTGGAA,-0.0183
CTGATCAG,-0.198
TAGCTCCA,-0.0401
AATCTCGC,0.0792
ATCCTTAG,0.0426

# Sample 2
# Target: Histone acetyltransferase KAT6A, both winged helices, GST fusion (KAT6A, Homo sapiens, UniProt Q92794, residues 1-181)
# Method: protein binding microarray
# Form: double-stranded DNA, one strand shown
# Medium: in vitro
# Tested at: not given
# Notes: 8-mer, flanks averaged, mean of 2 arrays, mostly near background
# Reference: not given
# Direction: higher = stronger binding
# Construct (chain): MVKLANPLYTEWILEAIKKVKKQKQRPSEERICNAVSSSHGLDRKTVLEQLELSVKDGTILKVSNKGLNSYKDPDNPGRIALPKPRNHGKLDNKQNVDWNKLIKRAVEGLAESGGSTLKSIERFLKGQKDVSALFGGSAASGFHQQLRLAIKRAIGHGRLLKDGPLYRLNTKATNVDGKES
Strand,E-score
ACAAACTC,-0.0639
CGGCGTTC,0.306
GCCCCGGA,0.0839
CACAGACA,-0.0997
AGCGCGCT,0.358
CCCCCAAC,-0.152
TGATGCCA,-0.0721
AACTCGTC,-0.169
ATACCTCC,-0.102
CTGGATAA,-0.0567
ATTGTCCA,-0.141
AAGAAGCC,0.0425
ACTCAAAC,-0.134
CGCGCGTC,0.412
AAAATCAT,-0.0961
AGTTGCCG,0.161
CATTCACG,0.119
ACGCCACA,0.0356
CTTGTTTC,-0.213
ACTCTAGC,0.0227
CCCGGTCG,0.276
CCATTGAC,-0.0548
AAGACGAG,-0.158
AGGATTTC,-0.13
AGCCCTCA,-0.0971

# Sample 3
# Target: CCND3, cyclin fold, Cln2 fusion (human)
# Method: yeast growth competition, sequencing
# Medium: yeast
# Notes: weak parent motif
# Reference: not given
# Direction: higher = stronger binding
# Starting sequence: PKMYT1 docking peptide (human); SFEPRNLLSLFED; partner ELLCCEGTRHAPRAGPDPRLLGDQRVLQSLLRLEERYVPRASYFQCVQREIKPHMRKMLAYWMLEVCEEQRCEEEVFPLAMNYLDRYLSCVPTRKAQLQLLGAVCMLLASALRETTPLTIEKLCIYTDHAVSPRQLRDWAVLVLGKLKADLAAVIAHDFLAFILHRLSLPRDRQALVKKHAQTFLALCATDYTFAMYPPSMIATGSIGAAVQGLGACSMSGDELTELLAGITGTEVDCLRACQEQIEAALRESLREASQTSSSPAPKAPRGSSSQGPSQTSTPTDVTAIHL
Substitution,normalised enrichment score
SFEPRNLLSLPED [F11P],0.09
SFEPRNLLSLFVD [E12V],0.0476
SFEPVNLLSLFED [R5V],0.0888
SFEPRNLLSLFEQ [D13Q],0.0743
SFEPRNLMSLFED [L8M],0.0792
SFEPRELLSLFED [N6E],0.137
SFEPRNLLSLQED [F11Q],0.155
SFSPRNLLSLFED [E3S],0.0189
SFEPRNLLSLFCD [E12C],0.107
SFEPRILLSLFED [N6I],0.129
SFEPRNLLSLVED [F11V],0.115
SIEPRNLLSLFED [F2I],0.0691
SFEPRNNLSLFED [L7N],0.146
SFEPRNTLSLFED [L7T],0.0882
SFEPRNLPSLFED [L8P],0.117
SFEPRNLLSLEED [F11E],0.0375
SFEPRNLLSLKED [F11K],0.114
SFEPRNLWSLFED [L8W],0.0272
SFESRNLLSLFED [P4S],0.0847
SFEPRNLLSLTED [F11T],0.0812
SFEPRNVLSLFED [L7V],0.0752
SFEPRNLESLFED [L8E],-0.343
SFEPHNLLSLFED [R5H],-0.0206
SFEPRNLLSAFED [L10A],0.0707
SFERRNLLSLFED [P4R],0.115

# Sample 4
# Target: Ras GTPase-activating protein-binding protein 1, C-terminal RGG region (G3BP1, Homo sapiens, UniProt Q13283)
# Chain of UniProt Q13283 (whole entry, looked up): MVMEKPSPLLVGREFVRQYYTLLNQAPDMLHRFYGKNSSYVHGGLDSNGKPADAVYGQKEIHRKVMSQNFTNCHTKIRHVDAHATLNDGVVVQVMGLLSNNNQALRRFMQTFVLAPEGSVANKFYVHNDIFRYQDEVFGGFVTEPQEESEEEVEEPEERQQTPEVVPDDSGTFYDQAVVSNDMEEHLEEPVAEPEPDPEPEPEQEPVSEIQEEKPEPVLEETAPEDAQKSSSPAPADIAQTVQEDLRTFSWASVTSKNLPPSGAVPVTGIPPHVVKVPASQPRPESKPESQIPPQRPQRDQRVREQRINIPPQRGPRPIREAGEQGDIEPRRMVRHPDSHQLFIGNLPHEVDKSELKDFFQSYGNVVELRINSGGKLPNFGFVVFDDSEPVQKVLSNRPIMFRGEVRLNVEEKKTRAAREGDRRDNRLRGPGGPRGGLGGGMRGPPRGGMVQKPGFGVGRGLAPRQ
# Method: RNA Bind-n-Seq
# Form: RNA
# Medium: in vitro
# Tested at: 1 µM
# Notes: whole 134-nt RNA, ends assumed
# Together with: 150 mM KCl
# Reference: input library
# Direction: higher = stronger binding
# All sequences stand within: GGGAGUUCUACAGUCCGACGAUC … UGGAAUUCUCGGGUGUCAAGG
Strand,log2 enrichment
GUCCUGUGCUACACAUCGUAUGUACCGAAUCGGGGCCCCCGGGCCCCCGGGGCCCCCGGAAAGUAUUAUGUUACGCCGUUCGGAUCUGCA,-2.23
UCCUGUGCUACACAUCGUAUGUACCGAAUCGGUUUUUUGGGUUUUUUGGGGUUUUUUGGAAAGUAUUAUGUUACGCCGUUCGGAUCUGCA,-0.739
GGCACCCUUUGAAGGGGAGGAUGAAGAUGAACUCUUCCAAUCCAUCAUGGAACACAACGUAGCCUAUCCCAAGUCUAUGUCCAAGGAAGC,-0.641
GUCCUGUGCUACACAUCGUAUGUACCGAAUCGGGGCCCCCCGGCCCCCCGGCCCCCCGGAAAGUAUUAUGUUACGCCGUUCGGAUCUGCA,-0.992
GUUGUAGACACUCCUGGGAUCCUGGACCACCCUCUGGAGGAUAGGAACACCAUCGAGAUGCAGGCCAUCACUGCCCUGGCCCACCUCCGU,0.487
CACAGACAACACCCACCCACACAGACACAGAGGGAAGGGGUUGGGAUGGGGACAGGGUGCACAGCAGGGCGGGGUAGGACCCCAGCCCCU,-0.276
UCAAGUCCUGUGCUACACAUCGUAUGUACCGAAUCGGGCCCGGGGCCCGGCCCGGAAAGUAUUAUGUUACGCCGUUCGGAUCUGCACUUC,-1.81
CAAGUCCUGUGCUACACAUCGUAUGUACCGAAUCGGCCCCGGGCCCCGGCCCCGGGAAAGUAUUAUGUUACGCCGUUCGGAUCUGCACUU,-1.84
UCCUGUGCUACACAUCGUAUGUACCGAAUCGGGAAAAAAAGGGAAAGGGUUUUUUUGGGAAAGUAUUAUGUUACGCCGUUCGGAUCUGCA,-0.455

# For quick reference, copied from above (sample 1):
Strand,E-score
CATACTAC,0.0835
ATAGCCTG,-0.00541
ACATCCGA,-0.194
ATGAGAGA,0.153
GCCTGGAA,-0.0183
CTGATCAG,-0.198
TAGCTCCA,-0.0401
AATCTCGC,0.0792
